# Measurements gathered from unrelated publications.
# Protocols differ between the studies behind these lines. Values joined by “and” are separate records of one study, mostly repeats; a detail may differ. ± marks the error that the study gave.
Structure (SMILES),tested on,assay,test system,setting,scale,quantity,result
[N-]=[N+]=N[C@]1(CO)O[C@@H](n2ccc(N)nc2=O)[C@@H](F)[C@@H]1O,Murine coronavirus,"viral RNA, RT-qPCR","DBT-9, MHV-A59 ExoN−",,,concentration at detection limit,410 nM
O=C(O)CO/N=c1\cc2n(-c3ccc(Cl)cc3)c3ccccc3nc-2cc1Nc1ccc(Cl)cc1,Mycobacteroides abscessus,bacterial growth,clinical isolate,,,MIC,> 30 µM
c1ccc(-c2nc3n(c2-c2ccc4c(c2)OCO4)CCC3)nc1,Leishmania infantum,,"macrophages, MHOM/MA(BE)/67/ITMAP263, amastigote",,,IC50,0.67 µM and 2.16 µM
COc1cc(C=O)ccc1OC1=C(Cl)C(=O)c2ccccc2C1=O,Alternaria alternata,,ITCC 4522,10 µg/mL,,zone of inhibition,19 mm
CC(C)C[C@H](NC(=O)C[C@H](O)[C@H](CC(C)C)NC(=O)[C@H](Cc1c[nH]cn1)NC(=O)CNC(=O)[C@@H](NC(=O)[C@H](C)NC(=O)[C@H](Cc1c[nH]c2ccccc12)NC(=O)[C@H](CCC(N)=O)NC(=O)[C@@H](Cc1ccccc1)NC(=O)COCCOCCNC(=O)CCC(C(=O)O)N1CCN(CC(=O)O)CCN(CC(=O)O)CCN(CC(=O)O)CC1)C(C)C)C(N)=O (stereo partly shown) [lutetium-177 labelled],,,"BALB/c nu/nu mice, skin","intravenous, 750 pmol, 1 h, together with: PA 300 µg",,tissue uptake,0.4 ± 0.1 %ID/g
O=C(O)C=Cc1ccc(O)cc1,human immunodeficiency virus 1,viral replication,"TZM-bl cells, BaL (CCR5-tropic)",48 h,,IC50,> 100 µM
Cc1cc(OC(C)C)ccc1C(=O)C(C)(C)NC(=O)c1sccc1C,Mycosphaerella melonis,mycelial growth,PSA medium,"20 °C, suspension concentrate 400 g/L",,EC50,0.65 mg/L
Clc1ccc(-c2c(-c3ccccn3)nc3n2CCC3)cc1Cl,Leishmania infantum,,"macrophages, MHOM/MA(BE)/67/ITMAP263, amastigote",,,IC50,0.5 µM and 0.73 µM
COc1cc(O)c2c(c1)C(=O)c1cc(C)cc(O)c1C2=O,HK-2 co-cultured with HepaRG,MTT,,"133.33 µM, 48 h",baseline: untreated control,viability,76.8 ± 5.78%
O=c1oc2c(O)c(O)cc3c(=O)oc4c(O)c(O)cc1c4c23,Streptococcus gordonii,broth microdilution,,,,MBC/MIC ratio,4
Cc1ccc(C(C)C)c(OC2=C(Cl)C(=O)c3ccccc3C2=O)c1,Alternaria alternata,,ITCC 4522,10 µg/mL,,zone of inhibition,16 mm
CC(C)n1ncc2c(C(=O)NCC3(C)CNC3)cc(C3CC3)nc21,Enterovirus D68,cytopathic effect,"RD, US/KY/14-18953",5000 nM,,cell protection,95.6% and 89.4% and 83.1%
Fc1cccc(N/N=C/c2ccc(-c3cccc(/C=N/Nc4cccc(F)c4F)c3)cc2)c1F,Candida and Aspergillus,,,"concentration not given, strain panel",,antifungal activity,inactive
CC(=O)c1ccc(-c2c(-c3ccccn3)nc3n2CCC3)cc1,Leishmania infantum,,"macrophages, MHOM/MA(BE)/67/ITMAP263, amastigote",,,IC50,7.25 µM and 6.13 µM
O=C1c2cccc(O)c2C(=O)c2c(O)cc(CO)cc21,HK-2 co-cultured with HepaRG,MTT,,"266.67 µM, 24 h",baseline: untreated control,viability,147 ± 23.6%
Cc1ccc2nc(-c3ccccc3)c(CNc3cccc(C(F)(F)F)c3)n2c1,Leishmania infantum,,MHOM/MA(BE)/67/ITMAP263,120 h,baseline: CC50 macrophages over EC50 amastigotes,selectivity index,2
C#CCON=C1C=CC(=C(C#N)c2ccccc2)C=C1,Candida parapsilosis,broth dilution,ATCC 22099,"48 h, 37 °C",,MFC,32 mg/L
CC(C)c1ccc(/C=C2\NC(=S)N(c3ccccc3)C2=O)cc1,Bacillus cereus,,ATCC 14579,concentration not given,,inhibition zone diameter,12 ± 0.39 mm
Cn1cc(-c2ccc(-c3cncc(Cl)c3N3CCC4(CCNC4=O)CC3)cc2)cn1,COLO 205,"gene expression, microarray, measured: SLPI mRNA",,"concentration not given, 2 h",baseline: untreated cells,log2 fold change,4.64
CCCCN(Cc1c(-c2ccccc2)nc2ccc(C)cn12)c1cccc(C(F)(F)F)c1,Leishmania infantum,,MHOM/MA(BE)/67/ITMAP263,120 h,baseline: CC50 macrophages over EC50 amastigotes,selectivity index,3.3
CCCCCCCCCCCCCCCCOP(=O)([O-])OCC[N+](C)(C)C,Leishmania infantum,,axenic amastigotes,,baseline: IC50 HeLa over IC50 amastigotes,selectivity index,1.5
CC(C)[C@H](NC(=O)[C@H](Cc1ccc(O)cc1)NC(=O)[C@H](Cc1ccc(O)cc1)NC(=O)[C@@H]1CCCN1C(=O)[C@H](CCC(=O)O)NC(=O)[C@H](CCC(=O)O)NC(=O)[C@H](Cc1c[nH]c2ccccc12)NC(=O)[C@@H]1CCCN1C(=O)[C@@H](NC(=O)[C@H](CCC(N)=O)NC(=O)c1ccc2c(c1)C(=O)OC21c2ccc(O)cc2Oc2cc(O)ccc21)C(C)C)C(=O)N[C@H](C(=O)N[C@@H](CCCCN)C(=O)N[C@@H](CCCCN)C(=O)N[C@@H](CO)C(=O)N[C@@H](CO)C(=O)NCC(=O)NCC(N)=O)C(C)C,,,"human, plasma","intravenous infusion, 400 mg, predose, day 1",,plasma concentration,not detected
N=C(N)c1ccc(OCCC(CCOc2ccc(C(=N)N)cc2)c2ccccc2)cc1 (stereo not shown),Escherichia coli,,BW25113,"concentration not given, lowest-FICI combination, together with: rifampicin",,MIC in combination,12.5 mg/L
Fc1ccc(Nc2c(-c3ccccn3)nc3ccc(-c4cnoc4)cn23)cc1,Leishmania infantum,,"macrophages, MHOM/MA(BE)/67/ITMAP263, amastigote",,,IC50,12.7 µM and 50.8 µM
CCc1nn(C)c2nc(-c3ccc(C(=O)O)cc3)nc(NCc3ccc(F)cc3)c12,Cryptosporidium parvum,,HCT-8,"3 x EC90, 6 h",baseline: DMSO control,parasite number,100% and 77.7% and 62.4% and 81.3%

# Some of these lines once more:
Structure (SMILES),tested on,assay,test system,setting,scale,quantity,result
N=C(N)c1ccc(OCCC(CCOc2ccc(C(=N)N)cc2)c2ccccc2)cc1 (stereo not shown),Escherichia coli,,BW25113,"concentration not given, lowest-FICI combination, together with: rifampicin",,MIC in combination,12.5 mg/L
CC(C)n1ncc2c(C(=O)NCC3(C)CNC3)cc(C3CC3)nc21,Enterovirus D68,cytopathic effect,"RD, US/KY/14-18953",5000 nM,,cell protection,95.6% and 89.4% and 83.1%
COc1cc(O)c2c(c1)C(=O)c1cc(C)cc(O)c1C2=O,HK-2 co-cultured with HepaRG,MTT,,"133.33 µM, 48 h",baseline: untreated control,viability,76.8 ± 5.78%
